# Results pooled from the literature.
# Protocols differ between the studies behind these lines. ± marks the error that the study gave.
SMILES,cell line,assay,setting,IC50
Nc1ncc(-c2cc(-c3cnn(CC(F)(F)F)c3)ncc2F)nc1C(=O)NC1CNCC(F)C1 (stereo not shown),MDA-MB-436,"cell growth or viability, ATP luminescence",72 h,1.87 µM
CCn1nc(Cl)c2c1-c1cnc(N)c(c1)O[C@H](C)c1cc(F)ccc1-c1nn(C)cc1C2,Ba/F3 EML4-ALK variant 1 S1206F,cell viability,,0.00128 µM
Cc1ccc(-n2cc(CSc3nc4ccccc4n3Cc3cn(-c4ccc(C)cc4)nn3)nn2)cc1,MDA-MB-231,"cell growth or viability, MTT",,5.42 µg/mL
COc1cccc(N2C(=O)C3=Nc4ccccc4CN3C2=S)c1,healthy human PBMCs,"cell viability, resazurin",,42.8 ± 6.1 µM
CNS(=O)(=O)Nc1nccc(Cc2c(C)c3ccc(Oc4ncccc4F)cc3oc2=O)c1F,HCC2218,cell viability,7 days,0.231 µM
COC(=O)N1c2ccc3c(nc(Cc4ccccc4)n3[C@@H]3CCC[C@@H](C(=O)O)C3)c2CC[C@@H]1C,AU565,"cell growth or viability, ATP luminescence",10 days,0.61 µM
COC(OC)c1ccc(-c2ccc(O)cc2)c(C(=C2C=CC(=O)C=C2)c2ccc(O)cc2)c1C#Cc1ccc(O)cc1,MGC-803,"cell growth or viability, MTT",48 h,> 50 µM
O=C(CN1CCN(C(=O)c2ccc(C(F)(F)F)cc2)CC1)Nc1cccc(C(=O)Nc2ccc3[nH]ncc3c2)c1,KM12,"cell growth or viability, ATP luminescence",72 h,28.5 µM
NC(=O)c1ccc(-c2ccccc2Cl)c2c3c([nH]c12)CC[C@H](N)C3,NCI-H446,cell proliferation,96 h,0.0782 µM
CCC(=CCc1c(O)cc2c(c1O)C(=O)CC(c1c(O)cccc1OC)O2)CC (stereo not shown),normal pig cell line,"cytotoxicity, MTT",48 h,98.6 ± 3.4 µM
CC(=O)[O][Pt]([NH2])([NH2])([Cl])([Cl])[O]C(=O)C(C)c1ccc(CC(C)C)cc1 (stereo not shown),C13* cisplatin-resistant ovarian,"cytotoxicity, MTT",72 h,1.5 ± 0.3 µM
CC(C)c1cccc(C(C)C)c1N1C(=O)C2=Nc3ccccc3CN2C1=S,healthy human PBMCs,"cell viability, resazurin",,30.5 ± 0.5 µM
Cc1cnc2nc1Nc1cccc(c1)COC/C=C/COCc1cc(ccc1OCCN1CCOCC1)N2,SET-2,"cell growth or viability, CCK-8",,9.65 µM
Cn1ncc(-c2ccc3c(=O)[nH]nc(CN)c3c2)c1-c1c(F)c(Cl)cc(OC2CC2)c1C#N,NALM-6,"cell viability, inhibitor, CellTiter-Glo","120 h, baseline-subtracted",0.1 µM
C=CC(=O)Nc1ccc(F)c(-c2ncnc3[nH]cc(C(=O)OCC)c23)c1,mouse naive B cells,CD69 induction,"BTK dependent, together with: anti-IgM",> 10 µM
CCC(=CCc1c(O)cc2c(c1O)C(=O)CC(c1cc(O)ccc1OC)O2)CC (stereo not shown),normal pig cell line,"cytotoxicity, MTT",48 h,20.6 ± 2.6 µM
CC(C)c1ccc(N(C)c2ccc3c(c2)OCC[C@H]3CNc2cnccc2C(=O)O)cc1,NCI-H446,"cell viability, CellTiter-Glo",7 days,0.119 µM
CCC(=CCc1c(O)cc2c(c1O)C(=O)CC(c1ccc(O)cc1OC)O2)CC (stereo not shown),normal pig cell line,"cytotoxicity, MTT",48 h,11 ± 2.4 µM
CC(C)(C)c1cnc(CSc2cnc(NC(=O)C3CCN(C(=O)CCCCCCN4Cc5cc6c(cc5C4)C(=O)N(C4CCC(=O)NC4=O)C6=O)CC3)s2)o1 (stereo not shown),NALM-6,"cell growth or viability, MTT",,0.0518 µM
O=C(CN1CCN(C(=O)c2ccc(F)cc2)CC1)Nc1cccc(C(=O)Nc2ccc3[nH]ncc3c2)c1,KM12,"cell growth or viability, ATP luminescence",72 h,33.6 µM
C[C@H](c1ccccc1)N1C(=O)C2=Nc3ccccc3CN2C1=S,healthy human PBMCs,"cell viability, resazurin",,5.9 ± 0.8 µM
O=C(NCc1cc(F)cc(F)c1)[C@@]1(O)CCN(c2ccc3[nH]ccc3c2)C1=O,PAXF546,colony formation,,10 µM
CCC(=CCc1c(O)cc2c(c1O)C(=O)CC(c1ccc(O)cc1)O2)CC (stereo not shown),normal pig cell line,"cytotoxicity, MTT",48 h,> 120 µM
C=CC(=O)N1CC2C(=O)N(CCN(C)C)c3c(c4cc(Cl)c(-c5c(O)cccc5F)nc4n(-c4c(C)ccnc4C(C)C)c3=O)N2CC1C (stereo not shown),A-427,cell growth or viability,,> 10 µM
C[C@H](c1ccccc1)N1C(=O)C2=Nc3cccc(Cl)c3CN2C1=S,healthy human PBMCs,"cell viability, resazurin",,2.8 ± 0.6 µM
Cc1cc(C(=O)Nc2ccc3[nH]ncc3c2)ccc1NC(=O)Nc1cc(C(F)(F)F)ccc1F,KM12,"cell growth or viability, ATP luminescence",72 h,> 50 µM
C=CC(=O)N1CCC[C@@H](n2nc(-c3ccc(Oc4ccccc4)cc3)c3c(N)ncnc32)C1,"TMD8, parental","cell viability, CellTiter-Glo",4 days,< 0.001 µM
Cn1cc(-c2n[nH]c3ccc(NC(=O)c4cccc(NC(=O)Nc5cc(C(F)(F)F)ccc5F)c4)cc23)cn1,KM12,"cell growth or viability, ATP luminescence",72 h,> 50 µM
C[C@H](c1cccc2ccccc12)N1C(=O)C2=Nc3ccccc3CN2C1=S,healthy human PBMCs,"cell viability, resazurin",,3.1 ± 0.01 µM
NC(NN=Cc1ccc([N+](=O)[O-])o1)=[S+][Au-][Cl],CAKI-1,"cell growth or viability, resazurin",,25.6 µM
CN1CCC(N[C@@H]2CCc3[nH]c4c(C(N)=O)ccc(-c5ccccc5Cl)c4c3C2)CC1,NCI-H446,cell proliferation,96 h,0.0038 µM
CCOc1cncc(-c2ccc(NC(=O)C3(c4ccnc(NS(=O)(=O)C5CC5)n4)CCOCC3)nc2)n1,RPMI-2650,"cell proliferation, CellTiter-Glo",72 h,1.44 µM
COc1cc(C(=O)N/N=C/c2cccc3ccccc23)cc(OC)c1OC,NALM-6,"cell growth or viability, MTT",48 h,0.0885 µM
CNC(NN=Cc1ccc([N+](=O)[O-])o1)=[S+][Au-][Cl],CAKI-1,"cell growth or viability, resazurin",,15.5 µM

# For quick reference, copied from above:
SMILES,cell line,assay,setting,IC50
CC(=O)[O][Pt]([NH2])([NH2])([Cl])([Cl])[O]C(=O)C(C)c1ccc(CC(C)C)cc1 (stereo not shown),C13* cisplatin-resistant ovarian,"cytotoxicity, MTT",72 h,1.5 ± 0.3 µM
CNS(=O)(=O)Nc1nccc(Cc2c(C)c3ccc(Oc4ncccc4F)cc3oc2=O)c1F,HCC2218,cell viability,7 days,0.231 µM
NC(=O)c1ccc(-c2ccccc2Cl)c2c3c([nH]c12)CC[C@H](N)C3,NCI-H446,cell proliferation,96 h,0.0782 µM
O=C(NCc1cc(F)cc(F)c1)[C@@]1(O)CCN(c2ccc3[nH]ccc3c2)C1=O,PAXF546,colony formation,,10 µM
